# Experimental data of several laboratories.
# Numbered parts are unrelated; each lists some results of a single study. “And” joins repeats or separate records; there may be more than shown.

# Series 1
# Compound: C=CCN1C(=O)C(O)(C(=O)O)Oc2cc(F)ccc21 (stereo not drawn)
organism,test,test system,setting,inhibition
Triticum aestivum,fresh weight,,"soil surface spray, 150 g ai/ha, 21 days, pre-emergence crop safety",5.5% and 6% and 8.5%
Arabidopsis thaliana,root length,Col-0,"25.0 µg/mL, 7 days, seed germination, dark",20.1%
Alopecurus japonicus,fresh weight,,"150 g ai/ha, pre-emergence treatment",54.4% and 55.9% and 56.2%

# Series 2 — species: CD-1 mice, male; route: subcutaneous; dose: 30 mg/kg
# SMILES: COc1cc(C(=O)OCCCN2CCCN(CCCOC(=O)c3cc(OC)c(OC)c(OCc4ccc([N+](=O)[O-])cc4)c3)CC2)cc(OC)c1OC
test system,setting,concentration [µg/mL]
brain,0.1667 h,0.0539
spinal cord,1.5 h,0.0727
spinal cord,0.1667 h,0.0298

# Series 3
# Compound: Cn1cc(-c2cccc(CN3CCC4(CC3)COc3c4ccc4c3CN([C@H]3CCC(=O)NC3=O)C4=O)c2)cn1
test system,setting,Cmax
"rat, plasma","intravenous, 1.02 mg/kg",0.439 µg/mL
rat,"oral, 3 mg/kg, approximate dose",0.366 µg/mL and 0.371 µg/mL and 0.513 µg/mL
cynomolgus monkey,"intravenous, 1 mg/kg",0.287 µg/mL and 0.251 µg/mL and 0.276 µg/mL
"cynomolgus monkey, plasma","intravenous, 1 mg/kg",0.271 µg/mL
"cynomolgus monkey, plasma","oral, 3.02 mg/kg",0.111 µg/mL
cynomolgus monkey,"oral, 3 mg/kg",0.0968 µg/mL and 0.15 µg/mL and 0.0869 µg/mL
rat,"intravenous, 1 mg/kg, approximate dose",0.441 µg/mL and 0.501 µg/mL and 0.374 µg/mL
"rat, plasma","oral, 2.98 mg/kg, group mean",0.417 µg/mL
"mouse, Crbn I391V, spleen","oral, 30 mg/kg",~3.66 µM

# Series 4 — method: modified Racine scale; species: C57BL/6J mice, male; route: intracerebroventricular; dose: 100 nmol; direction: direction not given
# SMILES: N=C(N)NCCCCCCN1CCC23c4c5ccc(O)c4OC2c2nc4ccccc4cc2CC3(O)C1C5 (stereo not drawn)
setting,seizure score
20 min,0
15 min,0
40 min,0

# Excerpt of the above (series 3):
test system,setting,Cmax
cynomolgus monkey,"intravenous, 1 mg/kg",0.287 µg/mL and 0.251 µg/mL and 0.276 µg/mL
"cynomolgus monkey, plasma","intravenous, 1 mg/kg",0.271 µg/mL
"cynomolgus monkey, plasma","oral, 3.02 mg/kg",0.111 µg/mL
